Experimental data pooled from the literature.
Each numbered part is a random draw from the data of one study; scales do not carry over between parts. Several values in a cell are separate wells, animals, samples, runs or records.
Chain of UniProt P57058 (whole entry, looked up): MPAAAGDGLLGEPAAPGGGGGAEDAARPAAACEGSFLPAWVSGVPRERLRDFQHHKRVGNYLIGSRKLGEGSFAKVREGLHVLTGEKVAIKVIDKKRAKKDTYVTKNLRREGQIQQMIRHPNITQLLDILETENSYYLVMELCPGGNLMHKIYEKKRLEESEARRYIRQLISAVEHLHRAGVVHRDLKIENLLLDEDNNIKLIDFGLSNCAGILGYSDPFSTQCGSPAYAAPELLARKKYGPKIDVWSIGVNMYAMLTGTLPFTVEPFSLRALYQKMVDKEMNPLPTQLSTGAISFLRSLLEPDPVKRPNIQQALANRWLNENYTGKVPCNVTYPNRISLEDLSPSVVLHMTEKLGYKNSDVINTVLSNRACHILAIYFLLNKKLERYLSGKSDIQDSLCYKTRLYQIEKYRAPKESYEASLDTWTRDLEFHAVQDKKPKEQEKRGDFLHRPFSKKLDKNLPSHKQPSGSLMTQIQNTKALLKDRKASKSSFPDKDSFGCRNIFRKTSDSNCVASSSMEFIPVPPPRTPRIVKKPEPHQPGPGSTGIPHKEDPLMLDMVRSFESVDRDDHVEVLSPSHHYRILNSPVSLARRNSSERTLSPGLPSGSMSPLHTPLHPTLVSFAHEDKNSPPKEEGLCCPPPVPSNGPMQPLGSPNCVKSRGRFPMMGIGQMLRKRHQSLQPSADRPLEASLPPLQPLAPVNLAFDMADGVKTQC
Chain of UniProt P45984 (whole entry, looked up): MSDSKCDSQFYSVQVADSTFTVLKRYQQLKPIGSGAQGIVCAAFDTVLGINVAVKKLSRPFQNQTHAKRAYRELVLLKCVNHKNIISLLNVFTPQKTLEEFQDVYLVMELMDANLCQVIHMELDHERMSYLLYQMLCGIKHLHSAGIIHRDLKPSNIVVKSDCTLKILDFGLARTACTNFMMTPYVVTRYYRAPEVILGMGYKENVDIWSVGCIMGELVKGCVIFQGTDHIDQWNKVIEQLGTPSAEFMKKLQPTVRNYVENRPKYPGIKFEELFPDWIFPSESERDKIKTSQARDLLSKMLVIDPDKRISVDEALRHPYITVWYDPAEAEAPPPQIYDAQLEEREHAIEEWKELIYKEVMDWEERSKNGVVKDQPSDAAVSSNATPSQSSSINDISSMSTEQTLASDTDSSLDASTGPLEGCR
Chain of UniProt Q04912 (whole entry, looked up): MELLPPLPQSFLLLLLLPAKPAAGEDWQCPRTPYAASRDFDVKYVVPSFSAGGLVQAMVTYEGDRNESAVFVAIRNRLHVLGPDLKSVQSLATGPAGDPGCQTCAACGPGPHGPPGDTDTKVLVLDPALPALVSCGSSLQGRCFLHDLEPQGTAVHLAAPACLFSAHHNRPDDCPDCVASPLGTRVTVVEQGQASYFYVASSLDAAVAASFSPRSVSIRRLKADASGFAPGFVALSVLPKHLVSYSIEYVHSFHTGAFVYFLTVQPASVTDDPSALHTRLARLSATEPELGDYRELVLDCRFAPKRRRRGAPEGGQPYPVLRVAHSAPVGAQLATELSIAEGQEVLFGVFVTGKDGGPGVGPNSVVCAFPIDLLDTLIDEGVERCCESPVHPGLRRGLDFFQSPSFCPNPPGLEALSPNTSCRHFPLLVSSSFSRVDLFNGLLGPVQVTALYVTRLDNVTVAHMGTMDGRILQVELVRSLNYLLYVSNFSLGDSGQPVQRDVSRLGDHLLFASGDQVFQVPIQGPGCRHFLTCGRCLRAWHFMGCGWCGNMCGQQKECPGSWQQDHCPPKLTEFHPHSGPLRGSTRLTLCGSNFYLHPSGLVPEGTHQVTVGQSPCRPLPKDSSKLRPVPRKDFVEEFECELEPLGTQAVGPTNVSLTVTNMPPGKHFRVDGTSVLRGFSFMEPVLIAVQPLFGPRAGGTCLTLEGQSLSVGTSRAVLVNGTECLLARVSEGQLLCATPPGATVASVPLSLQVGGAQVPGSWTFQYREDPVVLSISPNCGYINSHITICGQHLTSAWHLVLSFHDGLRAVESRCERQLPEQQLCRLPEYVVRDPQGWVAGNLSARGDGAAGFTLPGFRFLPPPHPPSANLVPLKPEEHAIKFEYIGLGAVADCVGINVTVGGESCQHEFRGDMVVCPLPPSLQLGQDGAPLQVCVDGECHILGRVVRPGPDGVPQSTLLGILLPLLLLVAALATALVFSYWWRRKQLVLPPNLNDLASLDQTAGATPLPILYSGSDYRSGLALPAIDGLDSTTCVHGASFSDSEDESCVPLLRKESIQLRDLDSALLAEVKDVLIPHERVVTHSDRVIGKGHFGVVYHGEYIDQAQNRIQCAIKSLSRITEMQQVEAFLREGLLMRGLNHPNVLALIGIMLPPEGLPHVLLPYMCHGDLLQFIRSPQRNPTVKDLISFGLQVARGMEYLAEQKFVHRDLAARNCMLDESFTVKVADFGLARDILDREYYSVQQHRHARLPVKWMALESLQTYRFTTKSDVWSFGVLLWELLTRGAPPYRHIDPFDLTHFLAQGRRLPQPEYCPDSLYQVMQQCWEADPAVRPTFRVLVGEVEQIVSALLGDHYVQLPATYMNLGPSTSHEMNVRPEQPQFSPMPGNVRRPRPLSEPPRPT
Chain of UniProt P46734 (whole entry, looked up): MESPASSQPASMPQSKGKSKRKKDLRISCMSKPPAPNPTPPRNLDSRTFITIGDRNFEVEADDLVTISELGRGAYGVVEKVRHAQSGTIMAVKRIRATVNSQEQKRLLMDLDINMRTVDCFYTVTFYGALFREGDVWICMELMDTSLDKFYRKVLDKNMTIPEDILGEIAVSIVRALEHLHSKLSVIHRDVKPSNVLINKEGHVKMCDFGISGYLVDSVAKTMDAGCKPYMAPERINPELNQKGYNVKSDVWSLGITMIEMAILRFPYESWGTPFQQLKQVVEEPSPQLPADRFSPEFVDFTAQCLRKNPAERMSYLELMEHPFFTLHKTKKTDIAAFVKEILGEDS
Chain of UniProt Q9UHD2 (whole entry, looked up): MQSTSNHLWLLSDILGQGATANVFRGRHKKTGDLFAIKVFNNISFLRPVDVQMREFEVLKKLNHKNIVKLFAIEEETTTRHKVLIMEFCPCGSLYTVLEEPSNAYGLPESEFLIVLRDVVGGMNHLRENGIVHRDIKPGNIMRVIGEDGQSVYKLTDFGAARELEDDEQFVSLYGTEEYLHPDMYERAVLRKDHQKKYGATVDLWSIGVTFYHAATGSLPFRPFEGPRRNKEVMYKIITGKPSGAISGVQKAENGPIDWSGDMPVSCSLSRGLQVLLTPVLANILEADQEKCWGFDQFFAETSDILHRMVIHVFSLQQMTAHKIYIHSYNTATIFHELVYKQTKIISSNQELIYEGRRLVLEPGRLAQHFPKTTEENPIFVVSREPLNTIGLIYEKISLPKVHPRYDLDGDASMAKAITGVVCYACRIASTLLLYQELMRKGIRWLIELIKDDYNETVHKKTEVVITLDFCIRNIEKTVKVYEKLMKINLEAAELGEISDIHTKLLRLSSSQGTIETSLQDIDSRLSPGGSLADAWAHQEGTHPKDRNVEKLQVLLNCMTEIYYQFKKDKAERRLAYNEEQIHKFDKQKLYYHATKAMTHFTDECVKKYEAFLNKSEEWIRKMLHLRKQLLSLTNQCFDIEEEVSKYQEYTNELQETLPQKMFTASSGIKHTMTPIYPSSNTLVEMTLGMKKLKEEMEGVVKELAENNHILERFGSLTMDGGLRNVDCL
Chain of UniProt O14920 (whole entry, looked up): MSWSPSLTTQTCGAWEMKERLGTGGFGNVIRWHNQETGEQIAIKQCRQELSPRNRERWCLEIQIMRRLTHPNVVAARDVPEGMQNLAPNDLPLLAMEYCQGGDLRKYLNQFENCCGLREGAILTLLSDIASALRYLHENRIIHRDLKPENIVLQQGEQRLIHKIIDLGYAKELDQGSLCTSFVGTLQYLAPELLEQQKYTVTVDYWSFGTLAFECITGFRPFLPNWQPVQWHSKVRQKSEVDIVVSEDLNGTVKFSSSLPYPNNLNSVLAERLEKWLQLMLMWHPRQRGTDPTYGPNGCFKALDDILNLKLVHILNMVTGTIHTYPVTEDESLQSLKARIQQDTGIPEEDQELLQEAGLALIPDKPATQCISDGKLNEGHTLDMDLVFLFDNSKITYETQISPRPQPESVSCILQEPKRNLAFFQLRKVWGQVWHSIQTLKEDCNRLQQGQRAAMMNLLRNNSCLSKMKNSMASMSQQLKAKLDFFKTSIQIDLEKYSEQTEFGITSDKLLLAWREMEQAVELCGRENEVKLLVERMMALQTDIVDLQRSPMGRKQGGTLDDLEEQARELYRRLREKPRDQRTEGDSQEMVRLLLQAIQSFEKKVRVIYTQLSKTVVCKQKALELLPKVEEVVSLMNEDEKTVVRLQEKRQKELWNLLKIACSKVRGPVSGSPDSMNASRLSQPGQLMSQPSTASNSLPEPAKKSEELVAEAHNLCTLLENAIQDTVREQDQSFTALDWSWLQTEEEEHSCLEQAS
Chain of UniProt Q96RR4 (whole entry, looked up): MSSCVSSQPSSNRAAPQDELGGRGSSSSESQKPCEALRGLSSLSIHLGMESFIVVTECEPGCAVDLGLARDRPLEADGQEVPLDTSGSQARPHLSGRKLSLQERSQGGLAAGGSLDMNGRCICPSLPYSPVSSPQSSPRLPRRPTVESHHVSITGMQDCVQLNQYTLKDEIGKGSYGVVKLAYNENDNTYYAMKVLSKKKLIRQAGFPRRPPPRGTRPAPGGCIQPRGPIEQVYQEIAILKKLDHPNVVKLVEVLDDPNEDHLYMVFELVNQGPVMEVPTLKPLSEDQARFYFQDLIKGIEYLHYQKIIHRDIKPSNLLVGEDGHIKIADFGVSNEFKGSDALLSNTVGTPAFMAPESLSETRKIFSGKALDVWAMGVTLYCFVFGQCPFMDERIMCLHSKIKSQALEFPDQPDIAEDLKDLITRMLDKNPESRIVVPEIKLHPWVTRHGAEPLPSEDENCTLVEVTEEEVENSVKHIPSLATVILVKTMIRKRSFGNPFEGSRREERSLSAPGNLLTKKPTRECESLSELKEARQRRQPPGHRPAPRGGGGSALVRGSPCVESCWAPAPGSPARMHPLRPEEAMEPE

Set 1
Host: mouse
Sample: microsomes or S9
Tested at: 2 µM
Time: 0.5 h
Compound | remaining compound [%]
CCCc1ncncc1C(=O)N1CC[C@@](O)(c2ccccc2)[C@H]2CCCC[C@@H]21 | 1.1
Cc1cccc(Cn2c3cc(=O)n(CCC4C=Nc5ccccc54)c(C)c3c(=O)n2-c2ccccc2)c1 (stereo not shown) | 7.02
Nc1cccc(Nc2nc(-c3ccc(Cl)cc3)cs2)c1 | 21.7
CCCCCOC(=O)C1[C@H]2C(=O)N(CCCOC)C[C@]23C=C[C@H]1O3 (stereo partly shown) | 10.7
CCOc1ccc(CCNCc2c(C(=O)O)c(C)n(-c3ccccc3)c2C)cc1OCC | 18.2
Cc1ccc(Nc2nc(-c3sc(C)nc3C)cs2)nc1 | 0.354
CC1CCC(NS(=O)(=O)CC(=O)Nc2cc(-c3ccsc3)nn2C)CC1 (stereo not shown) | 39.4
COc1ccc(N2CC(C(=O)N3CCc4cc(-c5ccno5)ccc43)CC2=O)cc1 (stereo not shown) | 76
Cc1ccc(S(=O)(=O)N(CC(=O)c2ccccc2)c2nc3nc(C)cc(C)n3n2)cc1 | 10.9
COc1ccc(Cl)cc1NC(=O)N1Cc2c(sc3c2CCCC3)-n2cccc2C1c1cccc(F)c1 (stereo not shown) | 33.9
NC(=O)C1CCC(CNCc2cc3ccccc3s2)CC1 (stereo not shown) | 0.239

Set 2
Structure (SMILES): c1ccc2c(-c3nn4c(-c5ccncc5)nnc4s3)c[nH]c2c1
target or system | assay | system | setting | how to read | enzyme activity
L444P/L444P Gaucher fibroblasts | 4-MUG hydrolysis in lysate |  | 0.5 µM, 72 h, without ISRIB | reference: vehicle | 175% and 159% and 162% and 157% and 164% and 171% and 180%
L444P/L444P Gaucher fibroblasts | 4-MUG hydrolysis in lysate |  | 0.1 µM, 72 h | reference: vehicle | 144% and 128% and 140% and 135% and 149% and 118% and 133% and 121%
wild-type human fibroblasts | GCase activity, 4-MUG hydrolysis lysate |  | 0.5 µM, 72 h | reference: vehicle | 139% and 191%
L444P/L444P Gaucher fibroblasts | 4-MUG hydrolysis in lysate |  | 0.05 µM, 72 h | reference: vehicle | 104% and 112% and 118% and 103% and 115% and 123%
wild-type human fibroblasts | GCase activity, 4-MUG hydrolysis lysate |  | 0.5 µM, 48 h | reference: vehicle | 109% and 112% and 105% and 108% and 100%
L444P/L444P Gaucher fibroblasts | 4-MUG hydrolysis in lysate |  | 0.5 µM, 72 h | reference: vehicle | 191% and 183% and 188% and 182% and 205% and 196% and 160% and 166%
alpha-galactosidase (human) |  | healthy dermal fibroblasts | 0.5 µM, with ISRIB | reference: DMSO without ISRIB | 185% and 241% and 200% and 195% and 197% and 208% and 159% and 190%
wild-type human fibroblasts | GCase activity, 4-MUG hydrolysis lysate |  | 1 µM, 72 h | reference: vehicle | 126% and 141% and 191%
glucocerebrosidase L444P (human) | 4-MUG hydrolysis in lysate | Gaucher fibroblasts L444P/L444P | 0.1 µM, 24 h | reference: vehicle | 106% and 110%

Set 3
Structure (SMILES): CCCC(=O)Oc1ccc2[nH]c(C(=O)c3cc4ccccc4[nH]3)cc2c1
Observed: enzyme activity
Action: inhibitor
Tested at: 0.5 µM
Reference: control
target | remaining activity
G protein-coupled receptor kinase 3 (GRK3, Homo sapiens, UniProt P35626) | 101%
Serine/threonine-protein kinase Chk2 (CHEK2, Homo sapiens, UniProt O96017) | 99%
Death-associated protein kinase 2 (DAPK2, Homo sapiens, UniProt Q9UIK4) | 88.4%
Inhibitor of nuclear factor kappa-B kinase subunit epsilon (IKBKE, Homo sapiens, UniProt Q14164) | 91.4%
STE20/SPS1-related proline-alanine-rich protein kinase (STK39, Homo sapiens, UniProt Q9UEW8) | 117%
Mitogen-activated protein kinase 9 (MAPK9, Homo sapiens, UniProt P45984) | 76%
Calcium/calmodulin-dependent protein kinase kinase 2 (CAMKK2, Homo sapiens, UniProt Q96RR4) | 84.6%
Inhibitor of nuclear factor kappa-B kinase subunit beta (IKBKB, Homo sapiens, UniProt O14920) | 98.7%
Death-associated protein kinase 1 (DAPK1, Homo sapiens, UniProt P53355) | 85.8%
cGMP-dependent protein kinase 1, isoform beta (PRKG1, Homo sapiens, UniProt Q13976) | 104%

Set 4
Structure (SMILES): N#Cc1ccc(Nc2ccc3[nH]c(=O)[nH]c3c2)c(Cl)c1
Technique: competition with immobilised ligand
Tested at: 1 µM
target | observed | remaining binding
Microtubule-associated serine/threonine-protein kinase 1 (MAST1, Homo sapiens, UniProt Q9Y2H9) | cell-free assay | 100%
Serine/threonine-protein kinase pim-3 (PIM3, Homo sapiens, UniProt Q86V86) | cell-free assay | 100%
Cyclin-dependent kinase 8 (CDK8, Homo sapiens, UniProt P49336) | cell-free assay | 100%
Serine/threonine-protein kinase TAO2 (TAOK2, Homo sapiens, UniProt Q9UL54) | cell-free assay | 100%
Atypical kinase COQ8B, mitochondrial (COQ8B, Homo sapiens, UniProt Q96D53) | cell-free assay | 100%
Serine/threonine-protein kinase TBK1 (TBK1, Homo sapiens, UniProt Q9UHD2) | cell-free assay | 100%
Phosphorylase b kinase gamma catalytic chain, liver/testis isoform (PHKG2, Homo sapiens, UniProt P15735) | cell-free assay | 100%
Dual specificity mitogen-activated protein kinase kinase 3 (MAP2K3, Homo sapiens, UniProt P46734) | cell-free assay | 75%
Hormonally up-regulated neu tumor-associated kinase (HUNK, Homo sapiens, UniProt P57058) | cell-free assay | 98%
Proto-oncogene tyrosine-protein kinase receptor Ret (RET, Homo sapiens, UniProt P07949, V804L) | cell-free assay | 100%
Tyrosine-protein kinase receptor Tie-1 (TIE1, Homo sapiens, UniProt P35590) | cell-free assay | 91%
Peripheral plasma membrane protein CASK (CASK, Homo sapiens, UniProt O14936) | cell-free assay | 100%
3-phosphoinositide-dependent protein kinase 1 (PDPK1, Homo sapiens, UniProt O15530) | cell-free assay | 97%
Mitogen-activated protein kinase 10 (MAPK10, Homo sapiens, UniProt P53779) | cell-free assay | 100%
Tyrosine-protein kinase ABL1, phosphorylated (ABL1, Homo sapiens, UniProt P00519, E255K) | binding | 92%
Cyclin-dependent kinase 16 (CDK16, Homo sapiens, UniProt Q00536) | cell-free assay | 100%
Rhodopsin kinase GRK7 (GRK7, Homo sapiens, UniProt Q8WTQ7) | cell-free assay | 100%
Macrophage-stimulating protein receptor (MST1R, Homo sapiens, UniProt Q04912) | cell-free assay | 100%
Cyclin-dependent kinase 4, with cyclin D1 (CDK4, Homo sapiens, UniProt P11802) | cell-free assay | 86%
Tyrosine-protein kinase JAK1, JH1 (JAK1, Homo sapiens, UniProt P23458) | cell-free assay | 100%
Non-receptor tyrosine-protein kinase TYK2, JH2 (TYK2, Homo sapiens, UniProt P29597) | cell-free assay | 100%
Serine/threonine-protein kinase Nek9 (NEK9, Homo sapiens, UniProt Q8TD19) | cell-free assay | 96%
Phosphorylase b kinase gamma catalytic chain, skeletal muscle/heart isoform (PHKG1, Homo sapiens, UniProt Q16816) | cell-free assay | 100%
Serine/threonine-protein kinase Nek1 (NEK1, Homo sapiens, UniProt Q96PY6) | cell-free assay | 55%
Serine/threonine-protein kinase PAK 3 (PAK3, Homo sapiens, UniProt O75914) | cell-free assay | 100%
